Experimental data collected from several papers.
Each line is one published result; not all experiments were run side by side. Numbers after ± are the reported error. Values after ≈ are worked out from the molar mass of the structure shown.
Cell line: HT-29

SMILES | assay | system | conditions | how to read | quantity | value
O=C(/C=C/C=C/C=C/C1CCCCC1)NC1=C[C@@](O)(/C=C/C=C/C=C/C(=O)NC2=C(O)CCC2=O)[C@@H]2O[C@@H]2C1=O | cell growth, CellTiter-Glo | – | 78 h | – | GI50 | 20.8 µM
COc1cnc2cccc(N3CCc4c(cc(Cn5ccnc5C)cc4-c4cn(C)nc4C(F)(F)F)C3=O)c2c1 | cell growth, inhibitor | – | 120 h | – | EC50 | 31.3 µM
Cc1cc(C)n(-c2nc(-c3ccc(Cl)cc3)c3c(NC(=O)c4ccccc4)nnc-3[nH]2)n1 | SRB | – | 10 µM, NCI60 single-dose screen, colon cancer | relative to: untreated | cell growth | 75.7%
COc1ccc(OC)c(-c2nc3ccc(-c4nc5ccc(N6CCN(C)CC6)cc5[nH]4)cc3[nH]2)c1 | SRB | – | 10 µM, 48 h | – | growth percent | 76.7%
C#C[C@@]1(O)[C@@H](CO)O[C@@H](n2ccc3c(N)ncnc32)[C@@H]1O | SRB | – | NCI-60 screen | – | TGI | 10 µM
COc1c(C)c(OCc2ccccc2)c(C)c(O)c1C(=O)/C=C/c1ccccc1 | SRB | – | – | relative to: normal over HT-29 IC50 | selectivity index | 0.82
NNc1nc(-c2ccc(Cl)cc2)c2c(NC(=O)c3ccccc3)nnc-2[nH]1 | SRB | – | 10 µM, NCI60 single-dose screen, colon cancer | relative to: untreated | cell growth | 105%
CCCCCC(=O)Oc1c(C)c(O)c(C(=O)/C=C/c2ccccc2)c(OC)c1C | SRB | – | – | relative to: normal over HT-29 IC50 | selectivity index | 0.88
CCCCN1CCN(c2ccc3[nH]c(-c4ccc5[nH]c(-c6ccc(C(F)(F)F)cc6)nc5c4)nc3c2)CC1 | SRB | – | 10 µM, 48 h | – | growth percent | -49.5%
S=C([S][Au-][P+](CCCCCC[P+]([Au-][S]C(=S)n1cccn1)(c1ccccc1)c1ccccc1)(c1ccccc1)c1ccccc1)n1cccn1 | cell growth, NCI-60 screen | – | colon cancer | – | log10 TGI | > -4
O=C(Nc1nnc2n3c(nc(-c4ccc(Cl)cc4)c1-2)SCC3=O)c1ccccc1 | SRB | – | 10 µM, NCI60 single-dose screen, colon cancer | relative to: untreated | cell growth | 99.8%
[Cl-].c1csc([I+]c2cccs2)c1 | – | – | 10 µM, 1 h | relative to: control | extracellular H2O2 production | 20 ± 2%
CCn1cc(-c2cc(Cn3ccnc3)cc3c2CCN([C@H](c2cc(OC)ccn2)C2CC2)C3=O)c(C(F)(F)F)n1 | cell growth, inhibitor | – | 120 h | – | EC50 | > 30 µM
COc1cccc(OC)c1-c1cc(C(=O)NC2(C(=O)O)C3CC4CC(C3)CC2C4)nn1-c1ccc(C(=O)N(C)CCCN(C)CCCN(C)C(=O)CN2CCN(CC(=O)[O-])CCN(CC(=O)[O-])CCN(CC(=O)[O-])CC2)cc1C(C)C.[177Lu+3] (stereo not drawn) | – | – | concentration not given, 240 min, 37 °C | relative to: added | internalized activity | 1.76 ± 0.03%
O=C1NC(=NCc2cccs2)S/C1=C\c1ccc2ncccc2c1 | MTS | colon cancer | – | – | IC50 | > 10 µM
CCOC(=O)CSc1nc(-c2ccc(Cl)cc2)c2c(NC(=O)c3ccccc3)nnc-2[nH]1 | SRB | – | 10 µM, NCI60 single-dose screen, colon cancer | relative to: untreated | cell growth | 109%
CCCN1CCN(c2ccc3[nH]c(-c4ccc5[nH]c(-c6ccc(C(F)(F)F)cc6)nc5c4)nc3c2)CC1 | SRB | – | 10 µM, 48 h | – | growth percent | -44%
CSc1nc(-c2ccc(Cl)cc2)c2c(NC(=O)c3ccccc3)nnc-2[nH]1 | SRB | – | 10 µM, NCI60 single-dose screen, colon cancer | relative to: untreated | cell growth | 112%
CCCN1CCN(c2ccc3[nH]c(-c4ccc5[nH]c(-c6cc(OC)c(OC)c(OC)c6)nc5c4)nc3c2)CC1 | SRB | – | 10 µM, 48 h | – | growth percent | 58%
O=C(Nc1nnc2n3c(Cc4ccccc4)n[nH]c3nc(-c3ccc(Cl)cc3)c1-2)c1ccccc1 | SRB | – | 10 µM, NCI60 single-dose screen, colon cancer | relative to: untreated | cell growth | 111%
Cn1cncc1-c1c(F)cncc1NC(=O)c1c(N)nn2cc(F)cnc12 | CHK1 phosphorylation, inhibitor, refers to: pCHK1 | – | together with: 4NQO | – | IC90 | 7.9 ng/mL (≈ 0.0213 µM)
C=CCOc1c(C)c(O)c(C(=O)/C=C/c2ccccc2)c(OC)c1C | SRB | – | – | relative to: normal over HT-29 IC50 | selectivity index | 0.91
CCCN1CCN(c2ccc3nc(-c4ccc5nc(-c6cc(OC)ccc6OC)[nH]c5c4)[nH]c3c2)CC1 | SRB | – | 10 µM, 48 h | – | growth percent | -23.2%
CCCCCCCC(=O)Oc1c(C)c(O)c(C(=O)/C=C/c2ccccc2)c(OC)c1C | SRB | – | – | relative to: normal over HT-29 IC50 | selectivity index | 0.95
c1ccc([I+]c2ccccc2)cc1 | cell growth, trypan blue count | – | 48 h | – | IC50 | ~5.8 µM
COc1c(C)c(OC)c(C(=O)/C=C/c2ccccc2)c(OC)c1C | SRB | – | – | relative to: normal over HT-29 IC50 | selectivity index | 0.85
CN1CCN(c2ccc3[nH]c(-c4ccc5[nH]c(-c6ccc(C(F)(F)F)cc6)nc5c4)nc3c2)CC1 | SRB | – | 10 µM, 48 h | – | growth percent | 29.2%

For quick reference, copied from above:
SMILES | assay | system | conditions | how to read | quantity | value
COc1cccc(OC)c1-c1cc(C(=O)NC2(C(=O)O)C3CC4CC(C3)CC2C4)nn1-c1ccc(C(=O)N(C)CCCN(C)CCCN(C)C(=O)CN2CCN(CC(=O)[O-])CCN(CC(=O)[O-])CCN(CC(=O)[O-])CC2)cc1C(C)C.[177Lu+3] (stereo not drawn) | – | – | concentration not given, 240 min, 37 °C | relative to: added | internalized activity | 1.76 ± 0.03%
